Published values collected from several papers.
Each line is one published result; not all experiments were run side by side. Values joined by “and” are separate records of one study, mostly repeats; a detail may differ. ± gives the spread as reported. Converted amounts (≈) assume the structure as drawn.

Structure (SMILES)	organism	assay	system	setting	how to read	endpoint	value
Cc1cc(OC(C)C)ccc1C(=O)C(C)(C)NC(=O)c1sccc1C	Stromatinia cepivora	mycelial growth	PSA medium	20 °C	–	EC50	0.01 µg/mL
CC(=O)N1CCC[C@H](C(=O)NCc2nc(-c3ccccc3)cs2)C1	Plasmodium falciparum	SYBR Green growth	asexual blood-stage parasites, 3D7	72 h	–	EC50	1300 ± 550 nM
COC(=O)[C@H]1[C@H]2C[C@@H]3c4[nH]c5cc(OC)ccc5c4CCN3C[C@H]2C[C@@H](OC(=O)c2cc(OC)c(OC)c(OC)c2)[C@@H]1OC	Drosophila melanogaster	fluorescence	–	liquid food, 40 µg/mL, first instar larvae	baseline: solvent	fluorescein ingestion	-18.1%
c1ccc(CCNC2CCCc3c2[nH]c2ccc(C4CCCCC4)cc32)cc1 (stereo not shown)	Mycolicibacterium smegmatis	cell growth	–	–	–	IC50	no effect
CC/N=C(\c1ccc(OC)c(OC)c1)N1CCCc2cc(C3=NNC(=O)SC3C)ccc21 (stereo not shown)	Plasmodium falciparum	LDH readout	3D7 Hyp1-Nluc	2 µM, 72 h	baseline: DMSO	parasite growth	41.1%
CC(=O)Oc1ccccc1C(=O)Nc1ncc([N+](=O)[O-])s1	Cryptosporidium parvum	–	HCT-8	EC90, 72 h	baseline: DMSO control	parasite number	160% and 138% and 170% and 106%
COCC(=O)N1CCC[C@H](C(=O)NCc2nc(C3=CCOCC3)cs2)C1	Plasmodium falciparum	SYBR Green growth	asexual blood-stage parasites, 3D7	72 h	–	EC50	> 5000 nM
COc1cc(OC)c(CCNC(=O)c2cn3cc(-c4cc(OCC(=O)O)ccc4OC)nc3s2)c(OC)c1	Plasmodium falciparum	LDH readout	3D7 Hyp1-Nluc	20 µM, 72 h	baseline: DMSO	parasite growth	29.9%
N=C(N)c1ccc(OCc2cc(COc3ccc(C(=N)N)cc3)cc(-c3ccccc3)c2)cc1	Escherichia coli	checkerboard	mcr-2 polymyxin-resistant	concentration not given, 20 h, with: rifampicin	–	MIC of compound in combination	3.13 µg/mL
Nc1nc(-c2ccccc2)nc2[nH]nc(Nc3ccc(C(F)(F)F)cc3)c12	coxsackievirus B3	–	31-1-93, NMRI mice, CVB3 chronic myocarditis	oral, 100 mg/kg twice daily, day 13, dosed days 3 to 10, score scale 0 to 7	direction not given	clinical score	0.9
CN(C)c1ccc(C(=C2C=CC(=[N+](C)C)C=C2)c2ccc(N(C)C)cc2)cc1	Drosophila melanogaster	fluorescence	–	liquid food, 40 µg/mL, first instar larvae	baseline: solvent	fluorescein ingestion	-65%
CN[C@H](CC(C)C)C(=O)N[C@H]1C(=O)N[C@@H](CC(N)=O)C(=O)N[C@H]2C(=O)N[C@H]3C(=O)N[C@H](C(=O)N[C@H](C(=O)O)c4cc(O)cc(O)c4-c4cc3ccc4O)[C@H](O)c3ccc(c(Cl)c3)Oc3cc2cc(c3O[C@@H]2O[C@H](CO)[C@@H](O)[C@H](O)[C@H]2O[C@H]2C[C@](C)(N)[C@H](O)[C@H](C)O2)Oc2ccc(cc2Cl)[C@H]1O	Staphylococcus epidermidis	broth microdilution	methicillin-susceptible isolates	–	–	MBC	2 µg/mL (≈ 1.38 µM)
CC1(CNc2nc(-c3cccs3)nc(Cl)c2-c2c(F)cc(N)cc2F)COC1	Schistosoma japonicum	–	adult	1.2 µM, 2 h	baseline: DMSO control	motility	45%
Oc1cc2c(cc1O)C1c3ccc(O)c(O)c3OCC1(O)C2 (stereo not shown)	Drosophila melanogaster	fluorescence	–	liquid food, 40 µg/mL, first instar larvae	baseline: solvent	fluorescein ingestion	-28.2%
COC(=O)[C@H](Cc1ccc(O)cc1)NCc1cc2ccccc2nc1SC	Pseudomonas aeruginosa	–	–	4 µg/mL, with: pentamidine 50 µM	baseline: control	growth	99.3%
O=C(Nc1ccc(CNc2ncnc3ccccc23)cc1)c1ccc(Cl)c(F)c1	Plasmodium falciparum	nanoluciferase readout	3D7 Hyp1-Nluc	2 µM, 72 h	baseline: DMSO	parasite growth	21.4%
CC1(C)c2nc(-c3ccc(F)cc3)c(Nc3ccc(F)cc3)n2CCN1C(=O)CN	Plasmodium berghei	parasite growth, luciferase bioluminescence	HepG2 spheroids infected	24 h	–	EC80	170 nM
CC(C)n1ncc2c(C(=O)NCC3(C)CNC3)cc(C3CC3)nc21	coxsackievirus A16	–	RD	5 µM	–	cell protection	102% and 99.4%
COc1ccc(C[C@H](NC(=O)[C@H](C)NC(=O)CN2CCOCC2)C(=O)N[C@@H](Cc2ccccc2)C(=O)C2(C)CO2)cc1 (stereo in doubt)	Plasmodium berghei	parasitaemia, 4-day suppression test	ANKA, infected BALB/c mice	oral	–	ED50	7.62 mg/kg

Repeated from above:
Structure (SMILES)	organism	assay	system	setting	how to read	endpoint	value
COC(=O)[C@H]1[C@H]2C[C@@H]3c4[nH]c5cc(OC)ccc5c4CCN3C[C@H]2C[C@@H](OC(=O)c2cc(OC)c(OC)c(OC)c2)[C@@H]1OC	Drosophila melanogaster	fluorescence	–	liquid food, 40 µg/mL, first instar larvae	baseline: solvent	fluorescein ingestion	-18.1%
Nc1nc(-c2ccccc2)nc2[nH]nc(Nc3ccc(C(F)(F)F)cc3)c12	coxsackievirus B3	–	31-1-93, NMRI mice, CVB3 chronic myocarditis	oral, 100 mg/kg twice daily, day 13, dosed days 3 to 10, score scale 0 to 7	direction not given	clinical score	0.9
O=C(Nc1ccc(CNc2ncnc3ccccc23)cc1)c1ccc(Cl)c(F)c1	Plasmodium falciparum	nanoluciferase readout	3D7 Hyp1-Nluc	2 µM, 72 h	baseline: DMSO	parasite growth	21.4%
